Measurements pooled from the literature.
Numbered parts are unrelated; each lists some results of a single study.

Series 1
Target: Interferon regulatory factor 7, full length, phosphomimetic (IRF7, Homo sapiens, UniProt Q92985, residues 1-503, S101K/S471D/S472D/S475D/S476D/S477D/S483D/S484D/S487D)
Technique: protein-binding microarray
Molecule type: double-stranded DNA, one strand shown
Sample: in vitro
Tested at: 250 nM
Setting: 60-bp whole probe
Together with: salmon DNA 0.4 mg/ml
Relative to: random background probes
Direction: higher = stronger binding
Constant ends, left off below: GCCTAGCAC … GTCTTGATTCGCTTGACGCTGCTG
Target sequence (chain): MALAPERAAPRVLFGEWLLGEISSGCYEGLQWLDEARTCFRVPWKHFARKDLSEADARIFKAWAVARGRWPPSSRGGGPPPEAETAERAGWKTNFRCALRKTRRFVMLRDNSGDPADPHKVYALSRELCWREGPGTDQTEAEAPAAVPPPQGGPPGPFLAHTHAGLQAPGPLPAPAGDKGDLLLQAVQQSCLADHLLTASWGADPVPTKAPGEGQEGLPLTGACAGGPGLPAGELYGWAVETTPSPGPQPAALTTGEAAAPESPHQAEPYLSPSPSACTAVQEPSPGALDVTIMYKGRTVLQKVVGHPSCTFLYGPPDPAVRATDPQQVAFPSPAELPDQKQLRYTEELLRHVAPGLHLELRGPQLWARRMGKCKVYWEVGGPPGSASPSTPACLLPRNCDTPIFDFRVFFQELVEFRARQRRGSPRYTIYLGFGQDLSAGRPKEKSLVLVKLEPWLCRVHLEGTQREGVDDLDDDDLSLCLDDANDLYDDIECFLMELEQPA
`TCACATATACACTGTGTAACTGTGCTA` gave a log fluorescence of 0.217 z-score.
`TGGGGGGATCAGGGAAACAGGTGCTAG` has a log fluorescence of 3.06 z-score.
`GACTAACTGGGGTTTCGAGACGTGCTA` gave a log fluorescence of 2.39 z-score.
`GACGAACTGGGCTATCGAGACGTGCTA` gave a log fluorescence of -0.65 z-score.
`TCACTTCTCTAACCTCTCACTGTGCTA` gave a log fluorescence of 1.12 z-score.
With `CTTGCTTTCCAATTCTCTTTGTGCTAG` the log fluorescence was 1.37 z-score.

Series 2
Target: Histone acetyltransferase KAT6A, winged helix 1, GST fusion (KAT6A, Homo sapiens, UniProt Q92794, residues 1-85)
Technique: protein binding microarray
Molecule type: double-stranded DNA, one strand shown
Sample: in vitro
Tested at: not given
Setting: 8-mer, flanks averaged, mean of 2 arrays, mostly near background
Relative to: not given
Direction: higher = stronger binding
Target sequence (chain): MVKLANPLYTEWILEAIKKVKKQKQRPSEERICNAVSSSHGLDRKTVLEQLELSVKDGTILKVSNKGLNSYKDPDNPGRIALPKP
With `CAGTGCCC` the E-score was -0.0264.
With `CGGGCCAC` the E-score was 0.242.
For `ATTCTGTG`, the E-score was -0.201.
`CAGAGACC` has an E-score of 0.0538.
`AATGCTTC` has an E-score of -0.0255.
With `CCATGCCC` the E-score was -0.0978.
`AGAAAGCT` gave an E-score of -0.0793.
`AGGCCTCA` gave an E-score of -0.106.

Series 3
Target: Sal-like protein 4, full length isoform B (SALL4, Homo sapiens, UniProt Q9UJQ4-2, residues 1-616)
Technique: universal PBM
Molecule type: double-stranded DNA, one strand shown
Sample: in vitro
Tested at: not given
Setting: 8-mer, flanks averaged, mean of replicates
Direction: higher = stronger binding
For `TCCTGTAA`, the E-score was 0.224.
For `ACACTTCT`, the E-score was -0.106.
`AACTGAGT` has an E-score of -0.00403.
`ACGTTTAC` has an E-score of 0.0722.
`CGCATCCC` has an E-score of -0.222.
The E-score of `ACTATGCC` is reported as 0.152.
For `CGATTACA`, the E-score was 0.121.
For `GTGGCTAA`, the E-score was 0.0176.
`TAAGACGA` gave an E-score of 0.0546.
`CCCTTCAC` has an E-score of -0.0914.
With `GTATACAA` the E-score was 0.28.
`AACCCCCT` has an E-score of -0.0958.
The E-score of `ACAGGGAT` is reported as -0.13.
`CTTAGCGA` gave an E-score of -0.145.
With `CGGTGTGA` the E-score was -0.342.

Further values, each from its own experiment
`PhoQ, residues 284 288 289 292 302 303 SVTLVV` has a fold induction of 1.3 (PhoP, residues 12 14 15 18 19 AQCLL (Escherichia coli, UniProt P23836); Sort-seq, refers to: YFP reporter; E. coli; PhoQ-PhoP variant library, together with: 10 µM Mg2+; relative to: high Mg2+ state, higher = stronger signaling).
